Results gathered from unrelated publications.
Compare with care: the assays were run in different laboratories. “And” joins repeats or separate records; there may be more than shown. ± gives the spread as reported.

Structure (SMILES)	test	test system	conditions	scale	measurement	value
Cc1ncsc1-c1ccc(CNC(=O)[C@@H]2C[C@@H](O)CN2C(=O)[C@@H](NC(=O)C2(C#N)CC2)C(C)(C)C)cc1	flow cytometry	bone marrow-derived macrophages, UT+/+, mouse	dose not given		F4/80+ cells	46.4%
O=C(CS(=O)(=O)c1cccc2nsnc12)Nc1cccc(Br)c1	CoA-CPM signal reduction, CPM fluorescence thiol	cell-free biochemical	assay interference counter-screen, added: CoA replacing acetyl-CoA		IC50	> 125 µM
C[C@H]1O[C@@H](O[C@H]2CC[C@@]3(C)[C@@H](CC[C@]4(C)[C@@H]3C=C[C@]35OC[C@@]6(CCC(C)(C)C[C@H]63)[C@@H](O)C[C@]54C)[C@]2(C)CO)[C@H](O)[C@@H](O[C@@H]2O[C@H](CO)[C@@H](O)[C@H](O)[C@H]2O)[C@H]1O		chronic-plus-binge ethanol mice, plasma	oral, 5 mg/kg/day for 7 d, 168 h		AST activity	55.2 U/L and 45.7 U/L and 54.2 U/L and 48.2 U/L
CSc1ccc(C(=O)/C=C/c2cc(C)c(OC(C)(C)C(=O)O)c(C)c2)cc1		db/db mice on MCD diet	oral, 30 mg/kg daily, 45 days	baseline: untreated model	NAFLD activity score	decreased
C=CC(=O)Nc1cc(Nc2nccc(Nc3cc(Cl)c(F)cc3C(C)(C)O)n2)c(OC)cc1N1CC[C@@H](N(C)C)C1		human, EGFR exon20ins NSCLC	dose not given, dose 100 mg and above		confirmed objective response rate	39.6%
CN(C)C(=O)c1cc2cnc(Nc3ccc(N4CCNCC4)cn3)nc2n1C1CCCC1	RNA-seq GSEA, refers to: HALLMARK_HEME_METABOLISM	MB002 tumour	concentration not given, in vivo	baseline: vehicle, direction not given	normalized enrichment score	-1.2
NC1CS(=O)(=O)c2ccccc21 (stereo not shown)	CoA-CPM signal reduction, CPM fluorescence thiol	cell-free biochemical	assay interference counter-screen, added: CoA replacing acetyl-CoA		IC50	> 125 µM
C[C@H](Oc1ccc(Br)cc1-c1ccon1)C(=O)O	response latency	human, tibialis anterior muscle	400 mg, 30 Hz+30 s		difference from placebo	0.994%
CO[C@@H]1[C@@H](OC(N)=O)[C@@H](O)[C@H](Oc2ccc3c(O)c(NC(=O)c4ccc(O)c(CC=C(C)C)c4)c(=O)oc3c2C)OC1(C)C		Brca1 wild-type MEFs, mouse	100 µM		colony survival	78.9% and 37.9% and 65.5% and 51.2% and 63.7%
CC(=O)Oc1cc2c(s1)CCN(C(C(=O)C1CC1)c1ccccc1F)C2 (stereo not shown)	light transmittance aggregometry	human patients, platelet-rich plasma	dose not given, 2 h, added: ADP 20 µM	baseline: patients	patients with IPA above 90%	0%
O=C(CCc1ccccc1Cl)NC1CS(=O)(=O)c2ccccc21 (stereo not shown)	CoA-CPM signal reduction, CPM fluorescence thiol	cell-free biochemical	assay interference counter-screen, added: CoA replacing acetyl-CoA		IC50	> 125 µM
CC(C)[C@H](NC(=O)[C@H](Cc1ccc(O)cc1)NC(=O)[C@H](Cc1ccc(O)cc1)NC(=O)[C@@H]1CCCN1C(=O)[C@H](CCC(=O)O)NC(=O)[C@H](CCC(=O)O)NC(=O)[C@H](Cc1c[nH]c2ccccc12)NC(=O)[C@@H]1CCCN1C(=O)[C@@H](NC(=O)[C@H](CCC(N)=O)NC(=O)c1ccc2c(c1)C(=O)OC21c2ccc(O)cc2Oc2cc(O)ccc21)C(C)C)C(=O)N[C@H](C(=O)N[C@@H](CCCCN)C(=O)N[C@@H](CCCCN)C(=O)N[C@@H](CO)C(=O)N[C@@H](CO)C(=O)NCC(=O)NCC(N)=O)C(C)C	nerve trajectory	human head and neck surgery, nerves	500 mg, not improved	baseline: white light	share of responses	50%
C[C@@H](O)CCOC(=O)C[C@@H](C)O	refers to: C10:3 acylcarnitine	human, plasma	60 min, log2-transformed values		metabolite level	-3.19 ± 0.77 µmol/L
Cc1n[nH]c2ccc(-c3cc(OC[C@@H](N)Cc4ccccc4)cnc3-c3ccoc3)cc12	kinase binding, competitor, MIB/MS competition, refers to: CEK1	Candida albicans cell lysate	100 nM	baseline: DMSO	log2 fold change	-0.256
CC(C)NCC(O)c1ccc(O)c(O)c1 (stereo not shown)		ventricular cardiomyocytes, C57BL/6 mouse	dose not given, 0.428 s		sarcomere length	1.72 µm
COc1ccc(-c2ccc3c(N4CCOC[C@@H]4C)nc(N4CCOC[C@@H]4C)nc3n2)cc1COC(=O)CCOCCOCCOCCONC(=O)c1ccc(F)c(F)c1Nc1ccc(I)cc1F	flow cytometry	JAK2V617F myelofibrosis mouse, splenocytes	40 mg/kg daily, seven days		pAKT level	decreased
Cn1cc(Nc2nccc(-c3ccc4c(c3)CN(C3COC3)CC[C@H]4NC(=O)c3cn(C(C)(C)C)nn3)n2)cn1	refers to: small cell lung cancer	splenic B cells, mice	30 mg/kg, IgD-activated in vivo	baseline: vehicle, direction not given	pathway activation z-score	0.775
Nc1ccccc1SC1=CS(=O)(=O)c2ccccc21	CoA-CPM signal reduction, CPM fluorescence thiol	cell-free biochemical	assay interference counter-screen, added: CoA replacing acetyl-CoA		IC50	> 125 µM
CCCCOc1nc(N)c2c(n1)N(Cc1cccc(CN3CCCC3)c1)CC(=O)N2	qPCR	human, blood	dose not given, three dosing periods	baseline: baseline	TLR7 mRNA level	increased
O=[N+]([O-])c1c(NC2CS(=O)(=O)c3ccccc32)nc2ccccn12 (stereo not shown)	CoA-CPM signal reduction, CPM fluorescence thiol	cell-free biochemical	assay interference counter-screen, added: CoA replacing acetyl-CoA		IC50	> 125 µM
CO[C@H]1CC[C@H](N2C(=O)CNc3ncc(-c4ccc(C(C)(C)O)nc4)nc32)CC1	flow cytometry	stimulated T cells, human, blood	45 mg single dose, 24 h, mean	baseline: baseline	p4EBP1 change from baseline	-1.7%
C=CC(=O)N1CCC(c2ccc(C(N)=O)c(-c3ccc(Oc4ccccc4)cc3)n2)CC1	tumour response, Lugano classification	patients with relapsed/refractory MCL	investigator assessed, 16.4 months follow-up		PR	50%
CN(Cc1cc(C(F)(F)F)cc(C(F)(F)F)c1)c1nc2ccccc2c(=O)s1	HPLC-MS		pH 10.2, added: 50 mM N-α-acetyl-lysine		pseudo-first-order rate constant	0 h⁻¹
Cl.N[C@@H](CC1=CCC(O)(c2nncnn2)C=C1)C(=O)O (stereo partly shown)	iEDDA cycloaddition	aqueous DMSO 25 %	37 °C, added: TCO-OH 2.2 mM		kobs	0.9 s⁻¹
N#Cc1ccc2c(c1)[C@H]1CCCN(C(=O)c3ccc4[nH]cnc4c3)[C@H]1C2		human, urine	360 mg, 24 h, day 1 over day -1	baseline: placebo and baseline	total urinary corticosteroids	111 % change

Structure (SMILES)	test	test system	conditions	scale	measurement	value
OC(CCN1CCCCC1)(c1ccccc1)C1CC2C=CC1C2 (stereo not shown)	resting-state EEG	healthy elderly humans	oral, 2 mg, eyes closed, LS mean	baseline: baseline	change, Alpha EEG power, in O2-Pz	-14.7%
CC(c1cc2ccccc2s1)N(O)C(N)=O (stereo not shown)		human blood	3 µM, added: A23187		arachidonic acid level	97900 ± 12900 pg/mL
Cc1nc(C(=O)N2CCC[C@H]2C(=O)N[C@@H](COC(C)(C)C)C(=O)N[C@@H](CC(C)C)C(=O)NC(C)(C)C(=O)N[C@@H](CC(C)C)C(=O)N[C@@H](CC(C)C)C(=O)NC(C)(C)C(=O)NC(C)(C)C(=O)NCCC(=O)NC2(CN(C)C)CCC2)co1		small unilamellar vesicles	concentration not given		calcein leakage	0%
CCN1[C@@H](C(=O)NC23CCC(C(=O)O)(CC2)CC3)[C@H](c2cccc(Cl)c2F)[C@]2(C(=O)Nc3cc(Cl)ccc32)C12CCCCC2		human, advanced solid tumours	dose not given, sample B assessable patients		confirmed partial response rate	10%
CC(C)[C@H](C(=O)Nc1ccc(C(=O)NO)cc1)c1ccccc1	MRI volumetry	human, left parieto-occipital meningioma	dose not given, day 2037 post-treatment		tumour volume	0.25 cm³
C[C@@H]1CCC[C@H](n2cnc(-c3cc(Cl)ccc3-n3cc(Cl)nn3)cc2=O)c2cc(ccn2)-c2c(cnn2C(F)F)NC1=O		pooled normal human plasma	IC1.5× aPTT, STA-PTT reagent		concentration for aPTT prolongation	250 nM
CC(C)n1c(C2CCNCC2)nc2c([N+](=O)[O-])c(Br)c(Br)cc21		patients with AML, bone marrow blasts	all dose levels, median and range		cycles to maximum reduction	3 cycles
C[C@H]1C[C@H]2CSC(N)=N[C@@]2(c2nc(NC(=O)c3ccc(OC(F)F)cn3)cs2)CO1	refers to: Aβ1-40	healthy adults, plasma	15 mg once daily, day 14	baseline: placebo	percent change from baseline	-68%
N=C(SC1CC(=O)N(c2ccc(Br)cc2)C1=O)N1N=C(c2ccccc2)CC1c1ccccc1 (stereo not shown)	CoA-CPM signal reduction, CPM fluorescence thiol	cell-free biochemical	assay interference counter-screen, added: CoA replacing acetyl-CoA		IC50	> 125 µM
C[C@@H](NC(=O)N1C(=O)[C@H](Cc2ccnc(N)c2)[C@H]1C(=O)O)C1CCCCC1		human	iv infusion, 0.3 mg/kg/h, 24 h	baseline: baseline	time to aPTT Emax	84 h
CSCCNc1nc(SCCC(F)(F)F)nc2c1ncn2[C@@H]1O[C@H](COP(=O)(O)OP(=O)(O)C(Cl)(Cl)P(=O)(O)O)[C@@H](O)[C@H]1O	light transmittance aggregometry	human patients, platelet-rich plasma	dose not given, 3 h, added: ADP 5 µM	baseline: patients	patients with IPA above 90%	2.6%
OCC(O)CO	targeted LC-MS metabolomics	Mus musculus male Gpd2 knockout, liver	drinking water, 5% w/v, 2 days		hexose phosphate concentration	0.572 mM and 0.633 mM and 0.614 mM and 0.372 mM and 0.656 mM
COc1ccccc1[C@H](Cn1c(=O)n(C(C)(C)C(=O)O)c(=O)c2c(C)c(-c3ncco3)sc21)OC1CCOCC1	[1-13C]acetate infusion, isotopomer analysis	overweight or obese healthy men, plasma VLDL-TG palmitate	oral, 200 mg single dose, 0 h relative to dose, fasted baseline		fractional hepatic DNL	6.35 % new palmitate
NC(=O)c1cnc2[nH]ccc2c1N[C@@H]1[C@@H]2CC3C[C@H]1C[C@@](O)(C3)C2	flow cytometry, refers to: CD8+ naive T cells	Japanese healthy subjects, peripheral blood	oral, 10 mg twice daily, day 4		change from baseline	0.75%
CCCC(CCC)C(=O)Oc1cccc(C(O)CCN)c1.O=CO (stereo not shown)	OCT at 500 µm from nerve head	Abca4-/-Rdh8-/- mice, photic damage	intraperitoneal, 10 mg/kg, 7 days, added: 10,000 lx light, 30 min		ONL thickness	55.9 µm and 49.3 µm and 55.5 µm and 57.6 µm and 45.5 µm
CC(CCc1ccc(O)cc1)NCCc1ccc(O)c(O)c1 (stereo not shown)		anaesthetised instrumented rat	iv infusion, 1 µg/kg/min, 15 min, unit not given	baseline: baseline	mean arterial pressure change	0 ± 1.3
Cc1cn(-c2ccc3n(c2=O)CCN([C@@H](C)[C@@H]2CC[C@H](c4cc(F)c(Cl)cc4C(F)(F)F)O2)C3=O)cn1		human, CSF	300 mg single dose, serial CSF sampling	baseline: placebo and baseline	maximum CSF Aβ42 change	-38.9%
CC(C)c1c(C(=O)Nc2ccccc2)c(-c2ccccc2)c(-c2ccc(F)cc2)n1CC[C@@H](O)C[C@@H](O)CC(=O)O		cynomolgus monkey, female, serum	40 mg/kg or 25 mg/kg, day 176, 4224 h		triglycerides	47 mg/dL
N#Cc1ccc2c(-c3ccncc3)c(-c3ccc(F)cc3)nn2c1	kinase binding, competitor, MIB/MS competition, refers to: CMK1	Candida albicans cell lysate	100 nM	baseline: DMSO	log2 fold change	0.185
O=C(NC[C@H]1CN(c2ccc(N3CCOCC3=O)cc2)C(=O)O1)c1ccc(Cl)s1		human moderate renal impairment, plasma	10 mg, geometric mean, unit not given	baseline: baseline	maximum prothrombin time prolongation	8.34
CCCCc1nc2c(N)nc3ccccc3c2n1Cc1ccc(CN)cc1	CD86 expression, flow cytometry	CD14+ myeloid cells in PBMC, human	100 or 1000 nM		CD86 induction	increased
CO[C@H]1C[C@@H]2CC[C@@H](C)[C@@](O)(O2)C(=O)C(=O)N2CCCC[C@H]2C(=O)O[C@H]([C@H](C)C[C@@H]2CC[C@@H](O)[C@H](OC)C2)CC(=O)[C@H](C)/C=C(\C)[C@@H](O)[C@@H](OC)C(=O)[C@H](C)C[C@H](C)/C=C/C=C/C=C/1C		healthy adult horses, blood	intravenous, 0.06 mg/kg, 120 min, oral glucose test 4 h post-dose		blood glucose concentration	158 mg/dL
O=C(O)CNC(=O)Cc1ccccc1		ventricular cardiomyocytes, C57BL/6 mouse	dose not given, 0.416 s		sarcomere length	1.72 µm
N=C(N)NCCC[C@H](NC(=O)[C@H](CCCNC(=N)N)NC(=O)[C@H](CCCCN)NC(=O)[C@H](CCC(N)=O)NC(=O)[C@H](CCCCN)NC(=O)[C@H](Cc1ccc(O)cc1)NC(=O)[C@@H](N)CCCCN)C(=O)N[C@@H](CO)C(=O)N[C@@H](Cc1ccc(O)cc1)C(=O)N[C@@H](CCCCN)C(=O)O	air evaporative stimulus	dentin hypersensitivity patients	10 µg/tooth single, day 22	baseline: baseline, direction not given	median Schiff sensitivity score change	-1
